Published values from different studies.
Protocols differ between the studies behind these lines. “And” joins repeats or separate records; there may be more than shown.
RPS6KA6: Ribosomal protein S6 kinase alpha-6 (RPS6KA6, Homo sapiens, UniProt Q9UK32)
RPS6KA6 N-terminal kinase domain: Ribosomal protein S6 kinase alpha-6, N-terminal kinase domain (RPS6KA6, Homo sapiens, UniProt Q9UK32)
RPS6KA6 C-terminal kinase domain: Ribosomal protein S6 kinase alpha-6, C-terminal kinase domain (RPS6KA6, Homo sapiens, UniProt Q9UK32)

The remaining activity of `COc1ccc(NC(=O)Nc2ccc3c(c2)C(=O)N(C(C)CO)CC(C)C(CN(C)Cc2ccc4c(c2)OCO4)O3)cc1` (stereo not shown) is reported as 90% (RPS6KA6; kinase activity, KinaseProfiler; 0.03 µM, species human; baseline: control).
`Nc1ncc2c(n1)-c1c([nH]c3ccc(C4=CCOCC4)cc13)CCC2` has a remaining binding of 76% (RPS6KA6 N-terminal kinase domain; binding, competition with immobilised ligand; 1 µM).
The remaining binding of `C=CC(=O)N1CCc2ccc(-n3c(=O)ccc4cnc5ccc(-c6cnn(C)c6)cc5c43)cc21` is reported as 92% (RPS6KA6 N-terminal kinase domain; KINOMEscan; 1 µM; baseline: DMSO control).
With `COc1ccc(C(=O)/C=C/c2ccccc2-c2c[nH]c3ccc(C#N)cc23)c(O)c1` the inhibition was -11% (RPS6KA6; enzyme activity, inhibitor; 20 µM).
With `C=CC(=O)N1Cc2nc(-c3cc(-c4cc(Cl)cnc4Cl)c(F)cc3F)n(-c3ccncn3)c2C1` the inhibition was 2.8% (RPS6KA6; cell-free assay, inhibitor; 1 µM).
For `Cc1nc2c(F)cc(-c3nc(Nc4ccc(CNC(=O)CCCCCCC(=O)NO)cc4)ncc3F)cc2n1C(C)C`, the inhibition was 68% (RPS6KA6; enzyme activity, inhibitor; 1 µM).
The inhibition of `C=CC(=O)Nc1cccc(-c2cnc3[nH]cc(C(=O)NC(C)(C)C)c3n2)c1` is reported as 20% (RPS6KA6; enzyme activity, inhibitor; 0.1 µM).
With `CNC1C[S+]2CC[S+]3CC[S+](C1)[Ru-4]321([N]=C=S)[n]2c3ccc(OC)cc3c3c4c(c5cc(F)c[n+]1c5c32)C(=O)NC4=O` (stereo not shown) the remaining binding was 58% (RPS6KA6 C-terminal kinase domain; KinomeScan; 0.1 µM; baseline: untreated).
The inhibition of `CN1CC[C@@H](COc2cnc(C#N)cc2-c2ccn3nc(NC(=O)C4CC4)cc3c2)C1` is reported as 11% (RPS6KA6; enzyme activity, inhibitor; 1 µM).
For `Cc1cccc(O[C@H]2CCC[C@@H](C(C)CNCc3ccncc3)C2)c1` (relative stereo), the inhibition was -3% (RPS6KA6; kinase activity, kinome panel screening; 10 µM).
`CCn1cc(C(=O)O)c(=O)c2c(N)c(F)c(NC3CCCCC3)cc21` has an inhibition of -12.5% (RPS6KA6; kinase activity; 0.1 µM, together with: ATP at Km).
With `COc1cc(Nc2nc(C)cc(-c3cnn4nc(OC)ccc34)n2)cc(C(F)(F)F)c1` the remaining binding was 70% (RPS6KA6 N-terminal kinase domain; binding, competition with immobilised ligand; 1 µM).
`CC(C)=CC1OC(C)(C)C2C=C3C(=O)C(Cl)=CC(O)C3C3C(O)C4OC4C(=O)C132` (stereo not shown) gave a remaining binding of 69% (RPS6KA6 C-terminal kinase domain; cell-free assay, competition with immobilised ligand; 10 µM).
`C=CC(=O)N1CCCC(n2c(=O)c3ncccc3n(Cc3ccc(Oc4ccccc4)cc3)c2=O)C1` (stereo not shown) gave a remaining binding of 83% (RPS6KA6 N-terminal kinase domain; binding, competition with immobilised ligand; 1 µM).
With `COc1c(Cl)cccc1Nc1c(-c2ccncc2C#C[C@@]2(C)CCCN2C(=O)/C=C/CN(C)C)[nH]c2c1C(=O)NCC2` the remaining binding was 23% (RPS6KA6 C-terminal kinase domain; binding, competition with immobilised ligand; 3 µM).
The remaining binding of `CNC(=O)C1CCN(c2cc(C)c(F)cc2NC(=O)c2ccc(-c3cc(O)ccc3C)c(C)c2)CC1` is reported as 90% (RPS6KA6 C-terminal kinase domain; binding, competition with immobilised ligand; 1 µM).
With `COCC12C(=O)NC3C4(C(OC)CC1O)C1CC5(O)C(OC)C(O)C(OC(C)=O)(C1C5OC(=O)c1ccccc1)C3(O)C(OC)C24` (stereo not shown) the remaining activity was 98% and 107% (RPS6KA6; kinase activity, inhibitor, ProQinase kinase profiling; 25 µM; baseline: control).
For `NC(=O)[C@@H](O)C[C@H]1CCc2sc3ncnc(O[C@H]4CC[C@H](N5CCOCC5)CC4)c3c21`, the inhibition was 21% (RPS6KA6; enzyme activity, inhibitor; 10 µM).
`CCN1CCN(Cc2ccc(C(=O)Nc3ccc(C)c(NCc4cnc5[nH]ccc5c4OC)c3)cc2C(F)(F)F)CC1` has a remaining binding of 81% (RPS6KA6 N-terminal kinase domain; binding, competition with immobilised ligand; 1 µM).
`COc1cc(Nc2nccc(-c3cnn4nc(OC)ccc34)n2)cc(C(F)(F)F)c1` has a remaining binding of 94% (RPS6KA6 N-terminal kinase domain; binding, competition with immobilised ligand; 1 µM).
For `Cc1ccc(-c2c(/C=C(\C#N)C(=O)NC(C)C)n(CCCO)c3ncnc(N)c23)cc1`, the remaining binding was 93% (RPS6KA6 N-terminal kinase domain; binding, competition with immobilised ligand; 1 µM).
The remaining signal of `Cc1cnc2nc1Nc1cccc(c1)COC/C=C/COCc1cc(ccc1OCCN1CCOCC1)N2` is reported as 100% (RPS6KA6 C-terminal kinase domain; cell-free assay; 0.1 µM).
